Measured values of several laboratories.
Each numbered part is a random draw from the data of one study; scales do not carry over between parts.

Set 1 — technique: competition protein-binding microarray; form: double-stranded DNA, one strand shown; matrix: in vitro; tested at: 2 µM; together with: Cbf1 competitor, 0.05 µM; direction: higher = stronger binding
Target: Phosphate system positive regulatory protein PHO4, full length, GST-tagged (PHO4, Saccharomyces cerevisiae, UniProt P07270, residues 1-312)
Setting: whole 60-bp probe, lowest competitor level
Target sequence (chain): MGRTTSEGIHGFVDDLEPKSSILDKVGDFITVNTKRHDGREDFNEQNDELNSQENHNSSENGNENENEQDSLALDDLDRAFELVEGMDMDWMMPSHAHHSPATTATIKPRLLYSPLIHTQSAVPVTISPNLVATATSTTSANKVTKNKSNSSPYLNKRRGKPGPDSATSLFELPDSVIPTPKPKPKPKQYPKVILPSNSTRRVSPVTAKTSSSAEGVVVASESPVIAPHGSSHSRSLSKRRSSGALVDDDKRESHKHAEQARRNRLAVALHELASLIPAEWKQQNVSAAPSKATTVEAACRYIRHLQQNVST
Strand	fluorescence intensity [a.u.]
ATTTCTTTAGCCGGCCACGTGGCAACTGAAATGTCTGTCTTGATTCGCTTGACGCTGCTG	19800
CGTCCTAGTGATTGCGATGTGGGTGCCATGAGGAAGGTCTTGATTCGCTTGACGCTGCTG	7520
CGGGGTTAAGTTTGGAATGTGGGTGGCTTGCAGCAGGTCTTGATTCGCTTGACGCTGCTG	5480
GATTGCTCTCAAAATCTCGTGGGTACCCGTCGTTGAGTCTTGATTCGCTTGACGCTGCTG	9640
TGCTAAGACCATAGGCACATGTACGCAGGCGACCAGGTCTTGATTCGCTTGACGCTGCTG	9460
TTTATCATTCGTTAACTTTCAACTATCTGATTTTGAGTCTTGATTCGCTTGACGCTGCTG	3100
TGCGCAACAACTTGTCACCAAACTTTATGTCTAGAAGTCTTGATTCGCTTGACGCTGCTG	3160
CACTTAAGCCTTGGCAACGTGTTGAACCAAGTCGACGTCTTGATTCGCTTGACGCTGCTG	12200
GCACCAGGAAGTTGTCATGCTTGATGCTCGGCTCCCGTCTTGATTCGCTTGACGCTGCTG	4480
CTTCTGTAAATTTGCAATGTGGGTGGACGCGCCCCGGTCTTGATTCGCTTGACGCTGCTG	5580
CATACCCAACCTTGAATTGTGGGTGAAGATATTTGTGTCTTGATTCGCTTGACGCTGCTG	4530
CTAACGAAGGTTTGACCGGTGGGTGACAAGCCAAGTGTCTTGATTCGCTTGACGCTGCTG	3410
GCCACTGAGAATGAGCGCGTGGGACAGAAACGGTGGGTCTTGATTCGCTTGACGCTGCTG	13100
CATGTTATCTAGCATCACCTGCCCATCATTTATCTGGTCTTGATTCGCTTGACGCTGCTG	6590
CCTCGGCGCTCCAACCACGTGCTGTTTATTACTCTGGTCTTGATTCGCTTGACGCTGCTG	21800
CTAGCGCCATTTCACCACATGCTTGAATAATACAGTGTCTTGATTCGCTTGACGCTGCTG	11200
AAATTACTAAGTTGCTCTGTGGGTGACGCCGTATGAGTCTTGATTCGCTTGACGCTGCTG	3540
ATATGATAAAATATAGATATATACCCTTAGATATCGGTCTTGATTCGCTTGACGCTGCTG	3490
CTTCTGTAAATTTCCCACGTGTTTTGACGCGCCCCGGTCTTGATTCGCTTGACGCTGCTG	17800
AAATTACTAAGTTGTTGGGTGGGTGACGCCGTATGAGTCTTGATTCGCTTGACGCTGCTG	4220
GTCTTGTCTCATTGTTGAGTGGGTGTCCCCACTTCAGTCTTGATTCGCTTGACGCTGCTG	4940
CGTTGCCTTATCGTCCTCGTGTCCTGTCTTCGAGGTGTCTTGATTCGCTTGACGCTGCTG	12200
CTTTCCCGATCTTGAAGTGTGGGTGTAGCACATTTGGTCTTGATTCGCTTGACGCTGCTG	5790

Set 2 — technique: RNA Bind-n-Seq; form: RNA; matrix: in vitro; tested at: 90 pmol; setting: 4-mer, random 30-nt RNA, single round; baseline: input library; direction: higher = stronger binding
Target: ATP-dependent RNA helicase DDX3X, helicase core (DDX3X, Homo sapiens, UniProt O00571, residues 132-607)
UniProt O00571, sequence (132-607, looked up): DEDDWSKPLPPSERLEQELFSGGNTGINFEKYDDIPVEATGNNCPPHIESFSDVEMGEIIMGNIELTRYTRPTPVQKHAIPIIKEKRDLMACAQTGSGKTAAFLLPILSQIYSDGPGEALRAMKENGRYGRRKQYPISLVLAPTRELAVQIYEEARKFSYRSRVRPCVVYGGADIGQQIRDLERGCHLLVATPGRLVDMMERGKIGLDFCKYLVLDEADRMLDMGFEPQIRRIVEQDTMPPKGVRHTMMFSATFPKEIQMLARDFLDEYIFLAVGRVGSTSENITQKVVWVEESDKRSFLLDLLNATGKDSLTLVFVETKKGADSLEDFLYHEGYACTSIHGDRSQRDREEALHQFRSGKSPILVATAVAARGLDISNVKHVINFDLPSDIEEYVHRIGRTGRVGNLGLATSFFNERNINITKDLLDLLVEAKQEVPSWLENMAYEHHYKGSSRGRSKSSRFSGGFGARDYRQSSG
Together with: 3 µM iPr-DMDA-PatA, 2 mM ADP, 2 mM phosphate
Strand	4-mer enrichment
ACAA	1.31 fold
AAGU	1.22 fold
UGAA	1.28 fold
CGCU	0.722 fold
AAUG	1.14 fold
AACG	1.23 fold
GAGU	1.19 fold
UGCA	0.824 fold
CCUA	1.02 fold
AGGA	1.28 fold
GCUU	0.714 fold
GCGU	0.834 fold
CGUG	0.827 fold
AAUA	1.48 fold
GGCC	0.637 fold
CACG	0.957 fold
AUAC	1.16 fold
CUGC	0.74 fold
GGCA	0.798 fold
CAUG	0.841 fold
UAGA	1.35 fold
GGAC	0.94 fold
AACC	1.24 fold
AUAA	1.45 fold

Set 3 — technique: protein binding microarray; form: double-stranded DNA, one strand shown; matrix: in vitro; tested at: not given; baseline: not given; direction: higher = stronger binding
Target: Histone acetyltransferase KAT6A, winged helix 2, GST fusion (KAT6A, Homo sapiens, UniProt Q92794, residues 85-181)
Setting: 8-mer, flanks averaged, mean of 2 arrays, mostly near background
Construct (chain): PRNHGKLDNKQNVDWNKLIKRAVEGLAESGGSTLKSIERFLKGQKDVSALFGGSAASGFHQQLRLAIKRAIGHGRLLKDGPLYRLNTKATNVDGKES
Strand	E-score
CTTCGCCA	0.161
AGCTTTGC	0.0654
CGGCCTAC	0.0092
ATCCGAGA	0.0888
CACCCAAA	0.0434
CATTTAAG	-0.0348
GGCGGCAA	0.211
GGCTTAGA	0.0217
CTTAGTGC	0.121
ACCGCTCA	0.0895
CCAAGACA	0.0461
CGCCCATA	0.105
AAGATCAC	-0.0996
CTAGATAG	-0.0333
CACTAACG	-0.0638
ATATTTGG	-0.0489
CAGTCTTA	-0.111
AAGGGAAT	-0.182
AGATAGAG	-0.123

Set 4 — technique: RNA Bind-n-Seq; form: RNA; matrix: in vitro; tested at: 365 nM; baseline: no-protein control; direction: higher = stronger binding
Target: RNA binding protein fox-1 homolog 2, RRM domain, GST-SBP tag (RBFOX2, Homo sapiens, UniProt O43251-10, residues 100-194)
Setting: natural RNA segment, single round, ends assumed
Construct (chain): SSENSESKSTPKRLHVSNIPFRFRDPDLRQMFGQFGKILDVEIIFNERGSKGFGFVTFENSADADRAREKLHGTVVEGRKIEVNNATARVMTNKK
Strand	RBNS enrichment (R)
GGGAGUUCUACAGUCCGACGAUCCUUGCUCUGAUGCUUGCCUCUGGGCCUCUCCAUGCCCAAGGUGGUCUUUCAUCCUUGACAGGCUGGUAAUGUGCUGGCCACCUCCAGCUCCUGCAUCGAGUCUGUAAACCUGGAAUUCUCGGGUGCCAA	0.33
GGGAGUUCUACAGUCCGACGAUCCCUCCACAGUGAGGAAGCUGGCAGCGAGCAGGUAGACCUGGAGACUGCACGGCUGCUGAUUGGUCUUCUAUCUCCUGAAGUUUACUCAUGUUCUUAAAACUCCUGGUGACUGGAAUUCUCGGGUGCCAA	0.392
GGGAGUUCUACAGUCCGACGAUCCUCCUGGCCAAGUGUUCUCUGUUUUCCUCGCACCUCCUUACACUGUGUGACCUGCAGGGCAUGAGGUAUUGAUGUGUUCGGGUUUCCUUUCCCAAGCCAGCAGAUGCAGGUGGAAUUCUCGGGUGCCAA	0.798
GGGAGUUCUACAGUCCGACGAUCGGUAGGGAAGCAGCAUAGGCCCCCAGGGAAACGACUCCACAGCAGGGCCUUCAUGGAUCUCCAAGUCUCUCAGUCUGGUCCAGCAGGUUCUCUGCUCAAAGCUGCCUGUCUGGAAUUCUCGGGUGCCAA	0.345
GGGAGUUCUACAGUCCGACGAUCGGGGCCACUGCUGAUAUUUGGCCUCUGCACAAGUGUGAGUGAAGAGAAAGAUUGGAAGCAGCUGCUGCCGCUACCGCCAACCAAAUCUUGCCAAUCCUGUCCCUGAAGCAUGGAAUUCUCGGGUGCCAA	1.83
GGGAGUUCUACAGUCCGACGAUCAUGUCUUCCAUGGAGCCUCAGGUGCUCCCCCUCUCACCUGGCAGCCCCUUCAGCUGCUAGUGAUAUCACUUGUUGGACAUUUUUCCAAUAAAGGUUCUUGGACAAACUGGUGGAAUUCUCGGGUGCCAA	0.266
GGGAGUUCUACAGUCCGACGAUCUUUUUUAAAGAUAAAACUGCACAGAUGGGAGUGAGAGAUUUACCUCUGCUCCUUCCUCCUUCAGUGCAGCCCCUCUUGGGUGGUUUAUUGGGCAGGAGGCCACCAUCAUUUGGAAUUCUCGGGUGCCAA	0.341
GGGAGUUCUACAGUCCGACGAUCUGUGUUUGGAACAAGAAGCAUCUCAGCAUUCUGUGAGAUCUGCAUGGAUCCUGUGGGUGGAGUCAGCAGGAACAAAGGGUUUUCCAUGGUAUUGAUGCUACCUCAGGUCUUGGAAUUCUCGGGUGCCAA	3.21
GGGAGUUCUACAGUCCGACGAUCAAGAUUUGAAAUUUGUUAAAAUGAGAAAUACCUUUGGAAGCCAUACAUAUGAAAAUCAGGAGGAAAUUAAGAAAAAAGAUGAAGAUAUUCAGAGGAGUUAUACUUUGAGGUGGAAUUCUCGGGUGCCAA	0.794
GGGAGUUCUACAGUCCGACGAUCAGAGAACGGGACCGGCACCACUGAGAAAGGAGUCUGGUUGGAAGCAAAUGUUUUUUUAAUGGACUUGCAUCUCCUCACCUUGAUCAGGACUAAAGGACGGAGGCCGCCCCUGGAAUUCUCGGGUGCCAA	0.395
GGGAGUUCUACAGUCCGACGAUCUCUGCUGGUGAAGUCUGUGUCCAAGGCAGGGGCCAGCAGAAACUCCAGCCUGCUGUCUACCAAAGGACUGUUCCCAGACCCUGUCUUUACCCUUCCCUUUUAAAGUCCCUUGGAAUUCUCGGGUGCCAA	1.43
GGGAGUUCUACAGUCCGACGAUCGCCCAGCGCCGCCUUUUCACAUUUUUUGAGCCAUGGACAUGGGUUGUAAAAAUUUGUGGGGAGUAGGCUCCAGGAAGAGCCAGCAUCCCUGCCCCCGUUUCCCACCGGGGUGGAAUUCUCGGGUGCCAA	0.442

Set 5 — cell line: yeast with cyclin E2-Cln2 chimera; read-out: cell growth; mode: binder; technique: competitive growth deep sequencing; form: peptide; tested at: concentration not given; setting: peptide tiling library; direction: direction not given
Sequence	growth enrichment score
EHCRVLFLDHVMYTIH	-0.498
SFLIEYEFLIPPSLKP	-0.152
ATNSSHTDAHEILVSD	0.379
NLEPNAEFDKRTEFIT	0.103
NRLLKLFTRCLTPLVP	0.169
ISRLFPPRTPGWHQLQ	0.985
GPVKLEFDVSDGAT	-0.0241
LAKRALKYTD	-1.39
VSRNLRSSLKSSLHTL	-0.108
PPTFLSTGEIHAFLSS	0.0701
NESHLDKEHDAVEVAD	-0.0362
ELGMEHCEKFEISETS	0.597
YLYLLLTQSLWCRV	0.653
RRRRLLFWDKETQI	-0.244
SPREGHMMDALYAQVK	1.86
RTEALEQGGLPKKLIF	0.134
KVRRNLFNQELLSP	1.42

Some of these lines once more (set 2):
Strand	4-mer enrichment
GCUU	0.714 fold
AACC	1.24 fold
GGCC	0.637 fold
GGCA	0.798 fold
UAGA	1.35 fold
AUAC	1.16 fold
AUAA	1.45 fold
CCUA	1.02 fold
GAGU	1.19 fold
ACAA	1.31 fold
UGAA	1.28 fold
AAUA	1.48 fold
GGAC	0.94 fold
